Results of several laboratories.
A part holds a random share of what one study measured.

Study 1
Target: Phosphate system positive regulatory protein PHO4, full length, GST-tagged (PHO4, Saccharomyces cerevisiae, UniProt P07270, residues 1-312)
Method: competition protein-binding microarray
Form: double-stranded DNA, one strand shown
Matrix: in vitro
Tested at: 2 µM
Setting: whole 60-bp probe, lowest competitor level
Together with: Cbf1 competitor, 0.05 µM
Reading: higher = stronger binding
Constant ends, left off below: … GTCTTGATTCGCTTGACGCTGCTG
Residues (chain): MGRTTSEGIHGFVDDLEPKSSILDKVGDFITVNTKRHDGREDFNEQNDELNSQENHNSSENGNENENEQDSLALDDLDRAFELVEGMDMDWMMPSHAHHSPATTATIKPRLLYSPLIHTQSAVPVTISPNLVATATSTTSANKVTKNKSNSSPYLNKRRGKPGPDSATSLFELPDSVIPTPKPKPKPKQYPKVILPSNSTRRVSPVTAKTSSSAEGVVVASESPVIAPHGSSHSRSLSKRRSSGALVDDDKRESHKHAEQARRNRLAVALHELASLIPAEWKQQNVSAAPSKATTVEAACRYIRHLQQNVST
Sequence | fluorescence intensity [a.u.]
CGGGGTTAAGTTTGTCACACGACTTGCTTGCAGCAG | 5330
AAACCATGGGACTGTCACACTATCCTTTCCAAGCCC | 4500
TGCGCAACAACTTGCTCAGTGGGTGTATGTCTAGAA | 4870
CGCGATGTTCTCAGCATCGTGTAACCTTTGCTCGTA | 7170
CATACCCAACCTTGCGCCGTGGGTGAAGATATTTGT | 5660
AATCGCTATCACTTACATGTGATATCATTTCTGTAC | 7450
AAATGGGCAGAATGCCACATGTTAGCAATGCAACGA | 11100
TGCGCAACAACTTGATCGGTGGGTGTATGTCTAGAA | 4360
AAAGACCTGTCGAGTCACGTTCGTTCAACTGTAGTG | 9240
ATGTACAGCGGTACCCTCGTGTTTTCTGCAGCGAGA | 13200
CGTCCTAGTGATTTTCACGTGGAATCCATGAGGAAG | 11500
TGCGCAACAACTTGTCACCGTACTTTATGTCTAGAA | 3270
TGCGCAACAACTTGCCGAGTGGGTGTATGTCTAGAA | 4440
TGGTTGGCATCTTATCCCGTGGTGAATCCATTACCA | 7820
TGCGCAACAACTTTTCACGTGACGTTATGTCTAGAA | 11300
CTTTCCCGATCTTGGATCGTGGGTGTAGCACATTTG | 8900
TGAAGAGTACTTACTGATGTGATATTCGACAGGATC | 2610
CTAAGCATATATCCTCACGTGACTCGGGCCACAGAC | 15000
CCATACCAAACAGCCCTCGTGGAGGAAAGAACGGTA | 13300
CCTGGACCTCCTGACCACGTGGTACTGCAGCTTCAA | 17600
GTCTTGTCTCATTTCCACGTGTTTTTCCCCACTTCA | 14500
TGCGCAACAACTTTTCACGTGATTTTATGTCTAGAA | 11000

Study 2
Target: Protein max, full length (MAX, Homo sapiens, UniProt P61244-2, residues 1-151)
Method: protein-binding microarray
Form: double-stranded DNA, one strand shown
Matrix: in vitro
Tested at: not given
Setting: k-mer, scored over probes, only values ≥0.25
Reading: higher = stronger binding
Sequence | E-score
CCACCCGC | 0.26
ACATGTCA | 0.288
CATGTTCC | 0.34
CAACGTGG | 0.462
ATAGCATG | 0.373
CCAAACAC | 0.296
CACACACG | 0.363
ACGCGTCC | 0.28
CGCATGCA | 0.424
ACGCACGG | 0.276
ATGCAGCA | 0.257
CCAACACG | 0.353
ATATCACG | 0.309
CTCATGCC | 0.342
ATGTGGGG | 0.307
ATGAGATG | 0.267
CGCACGCG | 0.447
CCCCACCC | 0.269
GGTGTCAC | 0.287
GCGTGTGA | 0.365
ATGCGTGC | 0.403
CGAGCCAC | 0.254
CAACCACG | 0.398
CCGCGAGG | 0.267
CGTTTTCA | 0.251

Study 3
Target: Interferon regulatory factor 5, full length, phosphomimetic (IRF5, Homo sapiens, UniProt Q13568-2, residues 1-514, S451D/S453D/S456D/S462D)
Method: protein-binding microarray
Form: double-stranded DNA, one strand shown
Matrix: in vitro
Tested at: 940 nM top
Setting: 60-bp whole probe
Together with: salmon DNA 0.4 mg/ml
Reference: random background probes
Reading: higher = stronger binding
Constant ends, left off below: GCCTAGCAC … GTCTTGATTCGCTTGACGCTGCTG
Sequence | fitted relative affinity [z-score]
TTATGTATCCTTTTCCTTTAGTGCTAG | 1.13
TTGGATCTCAGTTTCGATTAGTGCTAG | 7.98
GACGGTATCCTTTTCCTGGCGTGCTAG | 0.902
TCATTTTTTTTCTTTAAACTGTGCTAG | 1.66
TTAGGTATCCTCATCCTTTAGTGCTAG | 0.208
TTAGGTCGCCTACTGCTTTAGTGCTAG | -0.326
TCACCTCTCACGCATCTGACTGTGCTA | 0.731
TCAACTTTCCAAAGCGTACTGTGCTAG | 0.396
TCACTTTTCACTTTCTTACTGTGCTAG | 2.34
GACGGATTGGACTATCGGGACGTGCTA | -0.301
TTAGGTAGCGGACTGGGTTAGTGCTAG | -0.231
AACTCTCTAATTTTGAGACTGTGCTAG | 0.335
TCATCACTCTAATCTCACACTGTGCTA | 0.962
TCAGGTATTTTTTTCTAACTGTGCTAG | 0.57
TTAGATTTCGGGTATCGAGTAGTGCTA | 2.04
GACGGACTGGGGACCGGGGACGTGCTA | -0.298
GACGGAATGCTTATCCTGACGTGCTAG | -0.684
TTAGGTCTCCTCCTGCTTTAGTGCTAG | 0.256
GGTCTTCTGGGCTGTTTAGTCGTGCTA | -0.276
TTTGGTTTGTACACCGCCTTGTGCTAG | -0.0887
TCATTATTTATTTTTACACTGTGCTAG | 1.46
TCAAGTTTCCATTTTCTACTGTGCTAG | 2.16

Study 4
Target: Histone acetyltransferase KAT6A, winged helix 2, GST fusion (KAT6A, Homo sapiens, UniProt Q92794, residues 85-181)
Method: protein binding microarray
Form: double-stranded DNA, one strand shown
Matrix: in vitro
Tested at: not given
Setting: 8-mer, flanks averaged, mean of 2 arrays, mostly near background
Reference: not given
Reading: higher = stronger binding
Target sequence (chain): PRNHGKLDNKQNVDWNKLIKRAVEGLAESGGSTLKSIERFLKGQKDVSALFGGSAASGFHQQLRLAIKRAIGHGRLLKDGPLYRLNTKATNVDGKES
Sequence | E-score
CTGCGTGA | 0.0493
ATCAGAGG | 0.0915
CCGCAATC | 0.164
ATAAATTG | 0.148
TACGGCTA | -0.179
CGCTATAA | -0.0983
GCAAGGAC | 0.0202
CGCACATC | 0.0696
CATATCGG | -0.188
GCGACTAC | -0.123
GTTGAGTA | -0.0541
GAGATTCA | 0.0448
TATGATGA | -0.039
TCGTGAAA | 0.045
CGGCATTA | 0.148
CAAGGCGA | -0.00806
CAGGAGCG | 0.14
CCATCCTC | -0.0202
ACCGGTGG | -0.0423
GTCTATGA | -0.00898
TCCGAACA | 0.00776
AACACGCC | -0.0746
CGTCAGCA | -0.0951

Study 5
Target: RNA binding protein fox-1 homolog 2, RRM domain, GST-SBP tag (RBFOX2, Homo sapiens, UniProt O43251-10, residues 100-194)
Method: RNA Bind-n-Seq
Form: RNA
Matrix: in vitro
Tested at: 365 nM
Setting: natural RNA segment, single round, ends assumed
Reference: no-protein control
Reading: higher = stronger binding
Constant ends, left off below: GGGAGUUCUACAGUCCGACGAUC … UGGAAUUCUCGGGUGCCAA
Residues (chain): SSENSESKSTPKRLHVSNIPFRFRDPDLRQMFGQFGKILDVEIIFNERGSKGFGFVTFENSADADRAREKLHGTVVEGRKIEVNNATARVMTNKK
Sequence | RBNS enrichment (R)
CAUUUGUAUGUAUAUAUUGUAUAUACAUAUGAGUGUCUGUAUGUGUGUAUAGAUGGAUGGAUGUAACUCAUACUGUACAUUUCCAUCAGGGCACUUAAAAGUUCUGUUAU | 0.206
AGGUAAUGAACAUCUUUUUCAGUAAUUGUAAAGUGAUUUAUUCAGAAUAAAUUUUUUGUGCUUAUGAGUUGAUAUGUAUCUGAACAGUUUGUUCUAAGUACCAUUUUUCU | 0.618
ACAGAAGCCUGGCCCCAGAGACCUAAGACCUGUAUUGUGCAUUGUUUCCUAACUGCAUGUGAUAGACUUGGACAUUUGGAGAAUAUUUUGUACAUGAAUGAUUCAAAAUC | 48.7
GAGAGCGCACAAUAGCUACUGAACAAGCUGUGACUGAACUGUACAUAGACCUGAGAGGAGCAGAGAAGGAACACUACAUUCUCUAACGUUCUGUUAACCUUUGUACCAAA | 0.271
AUAGAUUUCUAAUUUGUCCUACUCAUGUUAGGAGCAUUAUCUUUGAAGGUAAAACAUAGUGUAUCAUUGUGUAAACUCCCAGGCUUGAUGUAGCAGAAGAGAUCAUUUCU | 0.283
GGGUGUGCUGGGGCAAGCAUCCUGAGACUCCUGUCUCCUGCAGAGGCCCUCCUUCCUGAAGACAGUCAGCCUGGGGCUCUUACCCUGAGACAAUGAGGGCCGCAUGAAGA | 7.69
AAGCAAAGUAUCAACGCUUUCUGAUUUCCAGUACUGGGUGUUGAACCCAGAGCCUUUUAUAUGCUGGGCAAGUGCUCUACAGUUUUCACUCUUUAUUCUGAGACAGGGUC | 0.338
CCUGGUUCUCAUAUAUGCUGUGUAGACAAUGUUCUACAGUUAUGGCAAUAAAGAUAGAUUACAUCGCAGAUCACUGGCUUCCGCUGUCUCUUUGGCUUAUAUUCCCCUAG | 0.315
UUAGUUGGAGCAAAGCUUUAAGUGUGUUGGCGUGCUUCUGUGUGGCUGUCCUGUGUCGCCAGGUCGAAGAUCACAGUGAGGUAGAGGCCCUGCCCCAUCCCCAGGGCCGC | 0.669
CACUGGGUUGCAGGGGAUUGAAGCCCUCCAAAAGCACUUACGGAUUCUGGUGGGGUGUGUUCCAACUGCCCCCAACUUUGUGGAUGUCUUCCUUGGAGGGGGGAGCCAUA | 0.268
ACCGGAAGGUUUAUCACCACCCUGGGAAACAUAAUGCUGCCCCUUGGGCCCAGAAAGGGGUUUCCAGCUGGGGGCACGUGGACUGGUUCUGCUGUUUUUGGCAGUCGCUU | 0.191
AUGUGGGUAUAGCUCAGGGUAAGCUGCUCUGAGGUAAAGGUCCAUGAACCCUGCCCCACUCCUGUCAGCCCCUCAUCAGCCUUUUCAGCAGGUUCCAGUGCCUGACUUGG | 0.333

Some of these lines once more (study 4):
Sequence | E-score
GCGACTAC | -0.123
GTTGAGTA | -0.0541
GAGATTCA | 0.0448
TATGATGA | -0.039
TCGTGAAA | 0.045
CGGCATTA | 0.148
CAAGGCGA | -0.00806
CAGGAGCG | 0.14
